Values quoted from earlier work as cited in several papers.
Protocols differ between the studies behind these lines. ± gives the spread as reported. Values after ≈ are worked out from the molar mass of the structure shown.
lasR: Transcriptional activator protein LasR (lasR, Pseudomonas aeruginosa, UniProt P25084)
Chain of UniProt P25084 (whole entry, looked up): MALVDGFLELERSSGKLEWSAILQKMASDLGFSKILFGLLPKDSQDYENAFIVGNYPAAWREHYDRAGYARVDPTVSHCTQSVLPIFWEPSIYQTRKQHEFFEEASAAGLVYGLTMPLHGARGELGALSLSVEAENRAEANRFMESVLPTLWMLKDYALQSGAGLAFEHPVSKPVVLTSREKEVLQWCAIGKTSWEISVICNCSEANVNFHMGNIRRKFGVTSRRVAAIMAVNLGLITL
Chain of UniProt P15144 (whole entry, looked up): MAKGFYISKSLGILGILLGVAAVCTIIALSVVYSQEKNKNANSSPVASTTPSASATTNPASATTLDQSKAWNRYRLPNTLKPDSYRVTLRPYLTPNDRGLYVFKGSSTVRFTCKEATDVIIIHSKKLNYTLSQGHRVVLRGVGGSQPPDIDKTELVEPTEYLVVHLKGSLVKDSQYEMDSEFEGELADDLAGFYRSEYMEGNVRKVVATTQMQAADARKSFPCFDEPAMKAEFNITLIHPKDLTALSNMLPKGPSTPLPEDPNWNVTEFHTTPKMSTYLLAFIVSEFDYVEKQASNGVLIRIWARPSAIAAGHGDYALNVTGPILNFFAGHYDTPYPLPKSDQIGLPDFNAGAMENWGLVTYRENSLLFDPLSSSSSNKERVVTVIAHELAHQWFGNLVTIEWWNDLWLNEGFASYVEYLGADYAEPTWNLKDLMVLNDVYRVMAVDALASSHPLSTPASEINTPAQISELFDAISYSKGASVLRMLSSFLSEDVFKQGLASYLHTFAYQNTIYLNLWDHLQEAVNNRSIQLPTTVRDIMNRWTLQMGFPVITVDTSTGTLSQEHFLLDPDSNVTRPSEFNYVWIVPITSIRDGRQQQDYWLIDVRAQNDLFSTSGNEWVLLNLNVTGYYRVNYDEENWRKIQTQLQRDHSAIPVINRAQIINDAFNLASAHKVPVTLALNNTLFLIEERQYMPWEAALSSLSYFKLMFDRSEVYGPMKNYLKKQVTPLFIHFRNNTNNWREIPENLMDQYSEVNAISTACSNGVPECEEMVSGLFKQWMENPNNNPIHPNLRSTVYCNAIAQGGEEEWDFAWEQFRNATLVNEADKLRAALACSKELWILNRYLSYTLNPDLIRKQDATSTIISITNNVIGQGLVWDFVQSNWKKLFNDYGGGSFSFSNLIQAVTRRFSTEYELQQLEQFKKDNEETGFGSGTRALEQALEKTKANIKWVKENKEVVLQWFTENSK
Chain of UniProt P35372 (whole entry, looked up): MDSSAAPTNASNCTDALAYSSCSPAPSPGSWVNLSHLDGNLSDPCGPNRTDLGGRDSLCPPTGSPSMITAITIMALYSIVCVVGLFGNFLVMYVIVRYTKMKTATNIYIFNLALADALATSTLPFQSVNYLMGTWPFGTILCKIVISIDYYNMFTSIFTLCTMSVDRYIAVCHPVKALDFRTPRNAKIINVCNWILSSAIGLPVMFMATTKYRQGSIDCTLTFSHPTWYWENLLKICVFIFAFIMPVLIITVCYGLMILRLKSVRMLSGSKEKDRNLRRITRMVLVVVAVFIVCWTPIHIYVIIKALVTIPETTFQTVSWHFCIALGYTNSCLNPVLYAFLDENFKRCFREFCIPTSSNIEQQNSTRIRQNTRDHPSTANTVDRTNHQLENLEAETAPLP
Chain of UniProt P0A7E5 (whole entry, looked up): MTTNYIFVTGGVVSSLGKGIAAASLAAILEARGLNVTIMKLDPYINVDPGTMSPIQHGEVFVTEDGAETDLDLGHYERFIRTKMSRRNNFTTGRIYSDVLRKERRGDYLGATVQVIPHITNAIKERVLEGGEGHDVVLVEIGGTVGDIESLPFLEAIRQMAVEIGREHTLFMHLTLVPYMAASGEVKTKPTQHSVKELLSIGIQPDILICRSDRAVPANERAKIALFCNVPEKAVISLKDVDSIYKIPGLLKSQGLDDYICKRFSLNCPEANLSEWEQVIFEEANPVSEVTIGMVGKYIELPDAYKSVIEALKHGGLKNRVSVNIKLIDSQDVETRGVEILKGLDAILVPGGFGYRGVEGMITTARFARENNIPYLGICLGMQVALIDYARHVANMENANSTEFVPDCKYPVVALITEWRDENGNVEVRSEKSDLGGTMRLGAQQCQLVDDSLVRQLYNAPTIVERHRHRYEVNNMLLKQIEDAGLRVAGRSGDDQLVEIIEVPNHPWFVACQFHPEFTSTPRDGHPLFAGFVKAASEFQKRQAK
Chain of UniProt P30547 (whole entry, looked up): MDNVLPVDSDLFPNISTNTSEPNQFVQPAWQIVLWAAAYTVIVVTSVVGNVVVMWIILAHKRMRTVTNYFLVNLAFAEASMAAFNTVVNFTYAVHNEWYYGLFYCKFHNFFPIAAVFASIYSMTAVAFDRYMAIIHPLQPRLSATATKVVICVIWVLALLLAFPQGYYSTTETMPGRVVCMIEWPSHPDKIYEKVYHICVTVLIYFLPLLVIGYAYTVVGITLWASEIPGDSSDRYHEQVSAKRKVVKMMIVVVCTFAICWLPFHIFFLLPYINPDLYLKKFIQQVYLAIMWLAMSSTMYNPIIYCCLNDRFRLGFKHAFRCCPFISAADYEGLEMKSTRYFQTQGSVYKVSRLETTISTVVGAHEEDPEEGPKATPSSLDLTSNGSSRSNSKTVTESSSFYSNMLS
Chain of UniProt P28223 (whole entry, looked up): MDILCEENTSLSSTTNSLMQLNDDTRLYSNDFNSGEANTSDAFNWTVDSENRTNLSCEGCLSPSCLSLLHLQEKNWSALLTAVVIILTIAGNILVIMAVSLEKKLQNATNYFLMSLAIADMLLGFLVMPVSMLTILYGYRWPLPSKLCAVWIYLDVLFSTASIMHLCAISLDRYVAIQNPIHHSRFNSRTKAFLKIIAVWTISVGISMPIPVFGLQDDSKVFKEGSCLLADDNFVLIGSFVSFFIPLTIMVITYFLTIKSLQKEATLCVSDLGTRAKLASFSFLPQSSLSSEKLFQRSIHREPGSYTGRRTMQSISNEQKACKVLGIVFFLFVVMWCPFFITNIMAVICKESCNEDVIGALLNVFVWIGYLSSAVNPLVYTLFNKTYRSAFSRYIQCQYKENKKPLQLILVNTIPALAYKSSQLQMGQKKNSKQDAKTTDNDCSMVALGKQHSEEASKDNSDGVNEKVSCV

Structure (SMILES) = NC(=O)c1cccc(NC(=O)C(NC(=O)c2ccc(Oc3ccccc3)cc2)c2ccc(OCc3ccccc3)cc2)c1 (stereo not drawn); target or system = Genome polyprotein, NS2B-NS3 protease (dengue virus type 2, UniProt P29990); assay = protease activity, inhibitor; setting = 50 µM, pH 7.5, together with: AMC substrate; endpoint = inhibition; value = 83%
Structure (SMILES) = CSCC[C@H](NC(=O)[C@H](Cc1ccccc1)NC(=O)CNC(=O)[C@@H](C)NC(=O)[C@@H](N)Cc1ccc(O)cc1)C(=O)N1CCC[C@H]1C(=O)N[C@@H](CC(C)C)C(=O)N[C@@H](Cc1c[nH]c2ccccc12)C(=O)NCc1cc(C(F)(F)F)cc(C(F)(F)F)c1; target or system = Substance-P receptor (Cavia porcellus, UniProt P30547); assay = antagonist; system = guinea pig ileum; setting = together with: naloxone 1 µM; endpoint = Ke; value = 10 ± 2 nM
Structure (SMILES) = CC[C@H](C)[C@H](NC(=O)[C@H](CCCCN)NC(=O)[C@H](CCC(N)=O)NC(=O)[C@H](C)NC(=O)[C@H](Cc1ccc(O)cc1)NC(=O)[C@H](CCC(=O)O)NC(=O)[C@H](CCCCN)NC(=O)[C@H](C)NC(=O)[C@H](CC(C)C)NC(=O)[C@H](CCCNC(=N)N)NC(=O)[C@H](CC(C)C)NC(=O)CNC(=O)[C@H](CCCCN)NC(=O)[C@H](C)NC(=O)[C@H](CCCNC(=N)N)NC(=O)[C@H](CC(C)C)NC(=O)[C@H](CCCCN)NC(=O)[C@H](CCC(N)=O)NC(=O)[C@H](C)NC(=O)[C@H](CC(C)C)NC(=O)[C@H](CCCCN)NC(=O)[C@H](CO)NC(=O)[C@H](CCCCN)NC(=O)[C@@H](N)Cc1c[nH]c2ccccc12)C(=O)N[C@@H](CC(C)C)C(=O)N[C@@H](CC(N)=O)C(=O)O; target or system = Pseudomonas aeruginosa; endpoint = MIC; value = 2 µM (≈ 6.11 µg/mL)
Structure (SMILES) = Nc1ccn(C2OC(COP(=O)(O)OP(=O)(O)OP(=O)(O)O)C(O)C2(F)F)c(=O)n1 (stereo not drawn); target or system = pyrG (Escherichia coli, UniProt P0A7E5); scale = reference: CTP; endpoint = apparent affinity; value = ~80 fold
Structure (SMILES) = CC[C@H](C)[C@H](NC(=O)[C@@H]1CCCN1C(=O)CNC(=O)[C@H](CC(C)C)NC(=O)[C@H](CCCCN)NC(=O)[C@H](CCCNC(=N)N)NC(=O)[C@H](Cc1c[nH]c2ccccc12)NC(=O)[C@H](C)NC(=O)[C@H](CC(N)=O)NC(=O)[C@H](CCCCN)NC(=O)[C@H](CC(C)C)NC(=O)[C@H](CCCCN)NC(=O)[C@H](CC(N)=O)NC(=O)[C@H](CCCNC(=N)N)NC(=O)[C@H](C)NC(=O)[C@H](CCCNC(=N)N)NC(=O)[C@H](CCCNC(=N)N)NC(=O)[C@H](Cc1ccccc1)NC(=O)[C@H](Cc1c[nH]c2ccccc12)NC(=O)CN)C(=O)N[C@H](C(=O)NCC(=O)N1CCC[C@H]1C(=O)N[C@@H](CC(C)C)C(=O)N[C@@H](CC(C)C)C(=O)N[C@H](C(=O)N[C@@H](CCCNC(=N)N)C(=O)O)[C@@H](C)O)C(C)C; target or system = Escherichia coli; endpoint = MIC; value = 4 µM (≈ 12.8 µg/mL)
Structure (SMILES) = CCCCCCCCCC(=O)NC1CCCC1; target or system = lasR; assay = reporter gene, antagonist, lasI-lacZ reporter; system = PAO1; setting = 250 µM; endpoint = inhibition; value = 90%
Structure (SMILES) = CC[C@@H]1CN2CCc3c([nH]c4cccc(O)c34)[C@@H]2C[C@@H]1/C(=C\OC)C(=O)OC; target or system = OPRM1 (Homo sapiens, UniProt P35372); assay = agonist; scale = reference: DAMGO; endpoint = Emax; value = 29%
Structure (SMILES) = CN(C)c1ncnc2c1ncn2[C@@H]1O[C@H](CO)[C@@H](NC(=O)[C@H](N)CSC(c2ccccc2)c2ccccc2)[C@H]1O; target or system = Aminopeptidase N (ANPEP, Homo sapiens, UniProt P15144); assay = enzyme activity; setting = 10 µM; endpoint = inhibition; value = 58.7%
Structure (SMILES) = CCCCCCC(=O)N[C@H]1CCOC1=O; target or system = lasR; assay = lasI-lacZ reporter, inhibitor; setting = 5 µM; endpoint = inhibition; value = 15%
Structure (SMILES) = CNC(=O)[C@@]12C[C@@H]1[C@@H](n1cnc3c(NC(C4CC4)C4CC4)nc(Cl)nc31)[C@H](O)[C@@H]2O; target or system = HTR2A (Homo sapiens, UniProt P28223); assay = binding; setting = 10 µM, together with: [3H]ketanserin; endpoint = inhibition; value = 9%
Structure (SMILES) = CCCCCCCCCC(=O)CC(=O)Nc1ccccc1; target or system = lasR; assay = reporter gene, antagonist, rsaL-yfp reporter; setting = 10 µM; endpoint = inhibition; value = 30%
Structure (SMILES) = COc1ccc2c(c1O)CCCC=C2c1cc(OC)c(OC)c(OC)c1; target or system = tubulin; assay = colchicine binding; setting = 5 µM; endpoint = inhibition; value = 95 ± 0.5%

For quick reference, copied from above:
Structure (SMILES) = COc1ccc2c(c1O)CCCC=C2c1cc(OC)c(OC)c(OC)c1; target or system = tubulin; assay = colchicine binding; setting = 5 µM; endpoint = inhibition; value = 95 ± 0.5%
